Assay results gathered from unrelated publications.
Every numbered part comes from another study and shows a few of its results, in no order.

Set 1 — technique: protein-binding microarray; molecule type: double-stranded DNA, one strand shown; sample: in vitro; concentration: 2540 nM top; setting: 60-bp whole probe; with: salmon DNA 0.4 mg/ml; baseline: random background probes; direction: higher = stronger binding; constant ends, left off below: GCCTAGCAC … GTCTTGATTCGCTTGACGCTGCTG
Target: Interferon regulatory factor 3, full length, phosphomimetic (IRF3, Homo sapiens, UniProt Q14653, residues 1-427, S386D/S396D/S398D/S402D/T404D/S405D)
Construct (chain): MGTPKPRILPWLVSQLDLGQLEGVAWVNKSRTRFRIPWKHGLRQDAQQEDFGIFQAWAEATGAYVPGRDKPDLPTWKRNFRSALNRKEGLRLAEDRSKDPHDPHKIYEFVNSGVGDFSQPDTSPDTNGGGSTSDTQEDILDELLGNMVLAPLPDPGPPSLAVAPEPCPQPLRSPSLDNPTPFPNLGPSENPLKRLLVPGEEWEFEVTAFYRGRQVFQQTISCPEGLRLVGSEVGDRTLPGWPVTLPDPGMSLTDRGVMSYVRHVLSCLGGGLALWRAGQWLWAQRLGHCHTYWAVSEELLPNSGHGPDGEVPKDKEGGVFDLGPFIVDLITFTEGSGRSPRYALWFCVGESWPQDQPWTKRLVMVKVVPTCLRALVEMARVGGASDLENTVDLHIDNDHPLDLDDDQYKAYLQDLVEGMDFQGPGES
| Sequence | fitted relative affinity |
| --- | --- |
| GACGGACTACTTTTCCTGACGTGCTAG | 0.349 z-score |
| TTAGGTCTCGGTCTCGTTTAGTGCTAG | 1.25 z-score |
| TTAAGTCTCCTTTTCCTTTAGTGCTAG | 6.02 z-score |
| TCATCTTTCACTACTCCACTGTGCTAG | 1.72 z-score |
| TTAGAACTGAGTTTCGAGTAGTGCTAG | 0.721 z-score |
| TTAGGACTGGGTTTTCGGTTAGTGCTA | 0.542 z-score |
| TCAAAGATTCCTCTCACACTGTGCTAG | 0.25 z-score |
| TCATTTTTCTAAGTAAAACTGTGCTAG | 1.71 z-score |
| TCATATGTGACCTTTTTAACTGTGCTA | 2.39 z-score |
| TTAGGTCTCCTTATCCTTTCGTGCTAG | 3.2 z-score |
| TCAGTTTTCATTATTGCACTGTGCTAG | 3.63 z-score |
| GACCGTATCGGTTTCGGGACGTGCTAG | 7.47 z-score |
| TTAGGACTGCCTATCCTTTAGTGCTAG | -0.152 z-score |
| TTAGGACTTCTACTGCTTTAGTGCTAG | -0.513 z-score |
| TTCGATTTCGGGTTTCGATTAGTGCTA | 3.65 z-score |
| GACGGTCTCGGTTTCGTGACGTGCTAG | 2.69 z-score |
| GACGGTTTCGGTCACGGGACGTGCTAG | 5.29 z-score |
| TCAGCTTTCTTTTATGCACTGTGCTAG | 1.68 z-score |
| GACGATTTCGGGTTTTGAGACGTGCTA | 1.97 z-score |

Set 2 — technique: universal PBM; molecule type: double-stranded DNA, one strand shown; sample: in vitro; concentration: not given; direction: higher = stronger binding
Target: Sal-like protein 4, full length isoform B (SALL4, Homo sapiens, UniProt Q9UJQ4-2, residues 1-616)
Setting: 8-mer, flanks averaged, mean of replicates
Residues (chain): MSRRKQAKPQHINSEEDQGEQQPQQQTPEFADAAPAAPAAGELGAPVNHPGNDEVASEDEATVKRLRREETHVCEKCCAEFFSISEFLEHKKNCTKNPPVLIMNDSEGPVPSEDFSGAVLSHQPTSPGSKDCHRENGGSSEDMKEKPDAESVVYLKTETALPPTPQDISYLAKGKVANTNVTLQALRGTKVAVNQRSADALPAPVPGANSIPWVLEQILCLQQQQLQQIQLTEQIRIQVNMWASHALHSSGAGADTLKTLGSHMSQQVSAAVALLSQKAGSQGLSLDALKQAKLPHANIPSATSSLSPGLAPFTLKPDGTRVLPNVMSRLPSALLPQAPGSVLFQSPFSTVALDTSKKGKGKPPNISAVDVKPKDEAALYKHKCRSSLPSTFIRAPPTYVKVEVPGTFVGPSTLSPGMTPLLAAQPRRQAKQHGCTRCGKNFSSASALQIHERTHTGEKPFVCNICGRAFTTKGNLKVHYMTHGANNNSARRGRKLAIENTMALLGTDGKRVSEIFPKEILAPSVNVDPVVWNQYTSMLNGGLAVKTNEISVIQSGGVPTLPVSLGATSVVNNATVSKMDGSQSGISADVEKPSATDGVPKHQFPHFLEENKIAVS
| Sequence | E-score |
| --- | --- |
| CCTTCGAA | -0.076 |
| CATTATCA | 0.29 |
| GAACTCGA | -0.142 |
| CTTAGACA | -0.0833 |
| GGCTCGAC | -0.24 |
| ATCGCCCG | -0.256 |
| CCCCCGTC | -0.224 |
| GGTCATCA | 0.0894 |
| ATGAGTTA | 0.165 |
| AGCGCGCT | -0.274 |
| GCACTTTA | 0.174 |
| CTATGAAA | 0.248 |
| ACACCGAG | -0.0814 |
| CCATCACC | -0.0813 |
| ATGCACCA | 0.0493 |
| ATAGCCCC | -0.258 |
| CCATGTAC | 0.0789 |
| AACGACAT | 0.138 |
| CATAGATG | 0.0102 |
| CAGCTTTC | -0.181 |
| AGCACTAC | 0.0055 |
| CCCGTGGA | -0.264 |
| ATTTTCCA | 0.229 |
| CCCTATCC | -0.249 |

Set 3 — technique: RNA Bind-n-Seq; molecule type: RNA; sample: in vitro; concentration: 365 nM; baseline: no-protein control; direction: higher = stronger binding
Target: RNA binding protein fox-1 homolog 2, RRM domain, GST-SBP tag (RBFOX2, Homo sapiens, UniProt O43251-10, residues 100-194)
Setting: natural RNA segment, single round, ends assumed
Residues (chain): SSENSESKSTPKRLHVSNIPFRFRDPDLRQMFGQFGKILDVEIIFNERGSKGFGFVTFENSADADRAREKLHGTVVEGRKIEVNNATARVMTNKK
| Sequence | RBNS enrichment (R) |
| --- | --- |
| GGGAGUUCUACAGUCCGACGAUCACUGUAUAUUUGUACUUUUGUGAGAUCCUUUUUGCUGUUUUACCAUUUUAAGUCUCUGUACUUGGCUACACACAGAUUGUAUUUUUAUUGUUAAUGCUCUUCUUAUGGAUUGGAAUUCUCGGGUGCCAA | 2.1 |
| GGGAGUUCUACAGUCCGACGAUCAUUCCCUUUUUAAAUGAGCUUUCAGGAAGUUGCUGAGAAAUGGGGUGGAAUAGGGAACUGUAAUGGCCACUGAAGCACGUGAGAGACCCUCGCAAAAUGAUGUGAAAGGAUGGAAUUCUCGGGUGCCAA | 0.459 |
| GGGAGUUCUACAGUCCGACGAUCUUAAAGAUCAAAUUAUUUGACUAUUGCUAGACAUUUCUAUACUCUGUUGUAACACUGAGGUAUCUCAUUUGCCCAUGUUAAUUUUUUUCUAAAUAAAUUGACAAAAACAAUGGAAUUCUCGGGUGCCAA | 0.341 |
| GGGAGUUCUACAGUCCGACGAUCUGCCUACAUACACAUGGCCGGGAUUCUUUAUUUCCUUGUUAUCAAUUAUAGUGCUUUGUUUGUUUCAGGGUUGGAAUUCUCAACCAGAAAUAAUACUUUCUAAAAUAUUUUGGAAUUCUCGGGUGCCAA | 0.399 |
| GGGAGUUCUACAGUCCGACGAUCUUGCAGUCAUUUGGUGCUCUGCUAACCAUUUAUAUAAAACUUAAAAACAAGAGAAAAGAAAAAUCAAUUAGAUCUAAACAGUUAUUUCUGUUUCCUAUUUAAUACAGCUGUGGAAUUCUCGGGUGCCAA | 0.37 |
| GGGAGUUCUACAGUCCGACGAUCUCAGAUCACCCACAAUAAAGCGCAGCCCUUGCUGCAGCACCCGCUGCCAUCCUUGUCUCUGCUUCCUUGGGGAGGGCUGCAGGGUGGCACAGCAGCCUGGCGUCAGUGACUGGAAUUCUCGGGUGCCAA | 0.72 |
| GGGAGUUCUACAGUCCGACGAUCCCAAUGGCUCAUCUCUAGGGUAAUUUUAUGUCUGAAAGUGUAUGCAGUUGGGUCAGAGCAUGACCUUUAAGAUAGCCUCUCUCAGCUAACAUAUUUAUGAAGAUGAGGCCUGGAAUUCUCGGGUGCCAA | 0.512 |
| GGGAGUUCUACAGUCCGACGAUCGUGCUGAUGUCCAAGACUUAACCAGAAGGGAUCUGGGAGGGCCUAGAGGUGGGCUCAGAAUUCUAGUGCUAGGUAACACCCUAGGACACACCACAGCCCUAACACACCAGUGGAAUUCUCGGGUGCCAA | 0.83 |

Set 4 — technique: RNA Bind-n-Seq; molecule type: RNA; sample: in vitro; concentration: not given; baseline: input RNA pool; direction: higher = stronger binding
Target: RING finger protein unkempt homolog, zinc fingers 1-6, GST-SBP tag (UNK, Homo sapiens, UniProt Q9C0B0, residues 30-357)
Sequence of UniProt Q9C0B0 (30-357, looked up): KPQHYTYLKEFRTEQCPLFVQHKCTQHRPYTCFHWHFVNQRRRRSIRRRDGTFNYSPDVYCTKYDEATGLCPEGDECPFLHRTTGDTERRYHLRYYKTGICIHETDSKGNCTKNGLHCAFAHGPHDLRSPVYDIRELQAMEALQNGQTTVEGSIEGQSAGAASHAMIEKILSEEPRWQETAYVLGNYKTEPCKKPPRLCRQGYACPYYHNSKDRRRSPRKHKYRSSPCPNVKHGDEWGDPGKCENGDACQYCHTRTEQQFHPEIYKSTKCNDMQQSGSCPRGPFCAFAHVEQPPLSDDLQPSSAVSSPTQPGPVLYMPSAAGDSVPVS
Setting: RNA with constant flanks, human and mouse sites, ends assumed
| Sequence | bound/input enrichment |
| --- | --- |
| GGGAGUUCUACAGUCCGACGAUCCCCCACUUCCAGUGUUUUUGCAUUGCAUUUUACCGAGCCGCCCAUCUCUGCUCAGCUUUUGGCUUUUCUCCGAGUAUUCUGUAUGACUGAAGAAGAACUGAAAGAACACUUGCUGGGAGACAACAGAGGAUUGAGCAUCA | 0.112 ratio |
| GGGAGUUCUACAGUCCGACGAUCAAAAAAAAGCCUAUUAAUAGGGUUUCUGCGCGGUGCAGGGUUGUAAACCUGCUUUAUCUUUUAGGAUUAUUCCUAAAUGCAUCUUCUUUAUAAACUUGACUUGCUAUCUCAGCAAGAUAACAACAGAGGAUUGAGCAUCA | 0.149 ratio |
| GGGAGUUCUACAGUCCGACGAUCCUUAAAAAUACUAAACAGAAAAAAAAAAGAAAAACAAAAAACUAGUCCAGGUAUGAUGGUGCCUGCCUUUAACCCCAGCACUUGGGAGGUAGAGGUGGGCAGAUCUCUUGAGAGAUCUGGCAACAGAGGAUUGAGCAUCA | 1.14 ratio |
| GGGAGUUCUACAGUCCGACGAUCCAUGUAGGAGCAAAGGCUGUCAUGUCUGUUGUGAGGGACCUGCUGACUAGGCUCUCUGGAACUAGGGCCGCCUGGCCCCUGGCAUUCUGAGGGGUGUGUGCUGCAGAGAGCAUUCAUUGUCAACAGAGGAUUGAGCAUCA | 0.255 ratio |
| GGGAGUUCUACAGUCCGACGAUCAAUAAACAGGAUAUGAAAGGGUGCAUGACAGCAGCUGAAAUCUCCAAAUACCUCACCCUAAGUUCAAUCAAGGACCACCCGUGGCACAUCCAGUCGUGCUGUGCGCUCACAGGAGAAGGGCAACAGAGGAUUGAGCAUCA | 0.17 ratio |
| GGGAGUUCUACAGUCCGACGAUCGCCUACAUCCUCUAUAGAAAGAAGAUUUUUUGGAAAAUCUGAUGGCUCCCACUGAGAUGUGCUGCUGGAAGACUCUAGUAGGCCUGCAGGGAGGACUGAAGCAGCCUUUGUUAAAGGGAACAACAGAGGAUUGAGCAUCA | 0.334 ratio |
| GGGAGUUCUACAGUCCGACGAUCAAUUCCUGCGCCUUCCUGACGUGAGCCCUGAGCGAUCUUCUAUGCAGUUCUGCCAUGCGUCCUGUUGGUCUCUCUGUGUUCUUUGUUACUUGGGUGCAAUAGCAACUUCCCUACCCCGUGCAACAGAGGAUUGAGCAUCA | 0.214 ratio |
| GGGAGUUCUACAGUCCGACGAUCGAUAGACCUCAAUAAAAGACAUAAUAUUUCUCCACCUGGCAGAAAAGUAACUGCCAAGUAAGAUUAAGAAAUAAGUUGAGCAUUUCUGGAGUAUAUUUCUCAUAAUUCUGCAGAGACUUCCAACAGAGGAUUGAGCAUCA | 0.393 ratio |

A few entries again (set 2):
| Sequence | E-score |
| --- | --- |
| CCCTATCC | -0.249 |
| GAACTCGA | -0.142 |
| AGCGCGCT | -0.274 |
| CTATGAAA | 0.248 |
| ATCGCCCG | -0.256 |
